Measurements pooled from the literature.
Parts stem from different laboratories: compare values within a part only.

Study 1 — technique: RNA Bind-n-Seq; form: RNA; sample: in vitro; tested at: 365 nM; baseline: no-protein control; reading: higher = stronger binding
Target: RNA binding protein fox-1 homolog 2, RRM domain, GST-SBP tag (RBFOX2, Homo sapiens, UniProt O43251-10, residues 100-194)
Notes: natural RNA segment, single round, ends assumed
Constant ends, left off below: GGGAGUUCUACAGUCCGACGAUC … UGGAAUUCUCGGGUGCCAA
For `CAGAGGCCUGAGGUUUCUAAAAGAAGGUAGAUUUCUACAGAGCUGAGUGUUGGUUCCUUUUUCUUAUUGGUUGAAAAUUACCUGGUAGUGAUCAGAAAACUUAGAUGCUA`, “RBNS enrichment (R)” read 0.767.
`UAUAAUUGGGUAGUUUUGUUAAUAUUUUUUUAUCUUGUCCUUGAUAUUCCAAAAGUUACAGGAUAGAUGUAAAUCAAUAAAGUCAUUUGGCUGUGUUUUAGACAGCUCCA` — result for “RBNS enrichment (R)”: 0.56.
For `GCACCUAUCUGAGCUCUACUCAGUCAUGAGAGGAGGACCAUGCUGCUGUCACUUCGUUGGUCCCUUGAAGAUCUCUGUGACCGGAUCUGCCUCCGUGGCUGGGAGACAUU`, “RBNS enrichment (R)” read 0.385.
`CUCUAGACACCACCCAUGCUGCCCCAGGUCUUACACAGUGCGUGGAACAAAGCAGAGACAUUUAUUCACCUUGACUCCCCAGGGAAGCCUUCCACACUAGAUGGUCCAAU`: “RBNS enrichment (R)” 0.486.
Under “RBNS enrichment (R)”, `UAAUGAAGGACAAAGGGAACCAGGGACGGGGAGGAGGCAUAGUCUGUGGUGACAGACAAUGCUAAGGAGGGAUCGCUUUGCCUGCCGGGUUCUCAAGGCUCUCUACAGGU` is recorded as 0.701.
`GGUGUGGGAAGACCAAAGGAAGGAACGCUAACAAUUUCUCAUACUUAGAAACAAAAAGAGCUUUCCUUCUCCAGGAAUACUGAACAUGGGAGCUCUUGAAAUAUGUAGUA`: “RBNS enrichment (R)” 0.411.

Study 2 — technique: protein binding microarray; form: double-stranded DNA, one strand shown; sample: in vitro; tested at: not given; baseline: not given; reading: higher = stronger binding
Target: Histone acetyltransferase KAT6A, winged helix 1, GST fusion (KAT6A, Homo sapiens, UniProt Q92794, residues 1-85)
Notes: 8-mer, flanks averaged, mean of 2 arrays, mostly near background
Construct (chain): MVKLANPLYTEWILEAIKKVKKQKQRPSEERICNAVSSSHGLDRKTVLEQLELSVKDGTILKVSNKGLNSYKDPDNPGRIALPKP
With `ATAACGAG` the E-score was -0.201.
With `GCACAAGA` the E-score was -0.115.
`GCAGTGAC` gave an E-score of -0.029.
With `CGTGATGA` the E-score was -0.169.
`AGCCGGCT` gave an E-score of 0.305.
With `TACAAATA` the E-score was -0.121.

Study 3 — technique: competition protein-binding microarray; form: double-stranded DNA, one strand shown; sample: in vitro; tested at: 2 µM; with: Pho4 competitor, 0.05 µM; reading: higher = stronger binding; constant ends, left off below: … GTCTTGATTCGCTTGACGCTGCTG
Target: Centromere-binding protein 1, full length, His-tagged (CBF1, Saccharomyces cerevisiae, UniProt P17106, residues 1-351)
UniProt P17106, sequence (whole entry, looked up): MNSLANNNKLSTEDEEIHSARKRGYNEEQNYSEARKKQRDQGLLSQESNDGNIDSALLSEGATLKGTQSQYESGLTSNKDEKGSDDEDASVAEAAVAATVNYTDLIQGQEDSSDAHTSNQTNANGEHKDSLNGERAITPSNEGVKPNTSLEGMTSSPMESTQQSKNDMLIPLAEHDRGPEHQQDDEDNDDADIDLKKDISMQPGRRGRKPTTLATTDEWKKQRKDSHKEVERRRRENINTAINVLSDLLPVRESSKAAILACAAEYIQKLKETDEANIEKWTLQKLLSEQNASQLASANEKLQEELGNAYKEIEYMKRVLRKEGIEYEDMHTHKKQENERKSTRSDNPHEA
Notes: whole 60-bp probe, lowest competitor level
The fluorescence intensity of `CTTCCTTTGTCCTGGTAGGTGTGAGCTCTTGAGAGT` is reported as 70.9 a.u.
With `AGGCAAGAAAGAGGATGCGTGCCGAAGCTCGGTTAG` the fluorescence intensity was 70.5 a.u.
`CAGTCTACCAAGGTGAACGTGTTGACTGTAAAGAAA` has a fluorescence intensity of 74.6 a.u.
With `CGGGGTTAAGTTTGTTTTGTGGGTGGCTTGCAGCAG` the fluorescence intensity was 93.4 a.u.
`ACCCGGCATAGAAAGATCGTGATTGTAACGCCCTTG` gave a fluorescence intensity of 67.5 a.u.
With `AAAAATGTATACAGATCAGTCTGTATATAAATCATG` the fluorescence intensity was 186 a.u.
For `CATACCCAACCTTGCCAGGTGGGTGAAGATATTTGT`, the fluorescence intensity was 63.5 a.u.
For `AAAGCGGTAATTTGAGTGGTGGGTGCAGATATCTAT`, the fluorescence intensity was 81.1 a.u.
`ACTTATCTGTCGAATCTCGTGACGGCACCTCCGACA` has a fluorescence intensity of 542 a.u.

Single results of other studies
`PhoQ, residues 284 288 289 292 302 303 SCCLKL` gave a fold induction of 3.68 (PhoP, residues 12 14 15 18 19 IQFRS (Escherichia coli, UniProt P23836); Sort-seq, refers to: YFP reporter; E. coli; PhoQ-PhoP variant library, with: 10 µM Mg2+; baseline: high Mg2+ state, higher = stronger signaling).

Repeated from above (study 1):
`UAUAAUUGGGUAGUUUUGUUAAUAUUUUUUUAUCUUGUCCUUGAUAUUCCAAAAGUUACAGGAUAGAUGUAAAUCAAUAAAGUCAUUUGGCUGUGUUUUAGACAGCUCCA` — result for “RBNS enrichment (R)”: 0.56.
For `GCACCUAUCUGAGCUCUACUCAGUCAUGAGAGGAGGACCAUGCUGCUGUCACUUCGUUGGUCCCUUGAAGAUCUCUGUGACCGGAUCUGCCUCCGUGGCUGGGAGACAUU`, “RBNS enrichment (R)” read 0.385.
